Measured values of several laboratories.
Lines come from different studies, so protocols differ. Numbers after ± are the reported error.
Target: Urease (Canavalia ensiformis, UniProt P07374)
Sequence of UniProt P07374 (whole entry, looked up): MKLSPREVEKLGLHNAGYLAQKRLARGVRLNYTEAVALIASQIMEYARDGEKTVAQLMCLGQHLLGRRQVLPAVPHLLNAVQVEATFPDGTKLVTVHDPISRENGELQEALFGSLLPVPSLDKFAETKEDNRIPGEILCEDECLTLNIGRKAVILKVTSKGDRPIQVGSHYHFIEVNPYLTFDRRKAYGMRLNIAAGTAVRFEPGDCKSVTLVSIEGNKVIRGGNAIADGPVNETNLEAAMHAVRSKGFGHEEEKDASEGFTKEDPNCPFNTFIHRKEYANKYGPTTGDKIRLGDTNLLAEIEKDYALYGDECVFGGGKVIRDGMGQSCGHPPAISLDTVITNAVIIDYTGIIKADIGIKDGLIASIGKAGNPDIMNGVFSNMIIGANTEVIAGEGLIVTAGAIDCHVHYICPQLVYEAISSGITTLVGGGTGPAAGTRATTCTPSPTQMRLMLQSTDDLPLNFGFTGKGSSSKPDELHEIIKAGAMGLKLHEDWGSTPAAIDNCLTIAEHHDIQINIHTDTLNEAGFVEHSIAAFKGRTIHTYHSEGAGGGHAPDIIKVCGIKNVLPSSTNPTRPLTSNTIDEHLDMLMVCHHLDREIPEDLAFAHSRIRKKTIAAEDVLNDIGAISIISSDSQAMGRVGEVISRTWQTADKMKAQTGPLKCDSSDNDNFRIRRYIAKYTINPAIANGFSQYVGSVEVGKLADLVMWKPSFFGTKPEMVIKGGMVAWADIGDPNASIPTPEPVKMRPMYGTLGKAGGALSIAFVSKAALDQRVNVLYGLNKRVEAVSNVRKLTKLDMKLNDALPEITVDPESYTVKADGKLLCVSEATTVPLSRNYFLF
Action: inhibitor

`COc1ccc(OCc2nn3c(-c4ccc(OC)cc4)nnc3s2)cc1` gave an IC50 of 8.14 µM (enzyme activity).
`CC(O)c1nc2ccc(Br)cc2[nH]1` (racemic) gave an IC50 of 46 µM (enzyme activity, absorbance).
`COc1cccc(/C=N/NC(=O)c2ccc(C(=O)N/N=C/c3cccc(OC)c3O)cc2)c1O` gave an IC50 of 65.7 µM (enzyme activity).
`COC(=O)C1=C(C)NC(=O)CC1c1ccc(Cl)cc1Cl` (stereo not drawn) has an IC50 of 82 µM (enzyme activity, absorbance; pH 7.4).
`COc1cc(-c2nc3cc(C(=O)N4CCN(c5ccccc5)CC4)ccc3[nH]2)ccc1OCC(=O)Nc1cccc(C)c1` gave an IC50 of 0.86 ± 0.08 µM (pH 7.4).
`COC(=O)C1=C(C)NC(=O)CC1c1ccccc1OC` (stereo not drawn) has an IC50 of 158 µM (enzyme activity, absorbance; pH 7.4).
`COc1ccc(-c2nnc3sc(COc4ccccc4O)nn23)cc1` has an IC50 of 32.9 µM (enzyme activity).
With `COC(=O)C1=C(C)NC(=O)CC1c1cccc([N+](=O)[O-])c1` (stereo not drawn) the IC50 was 48.8 µM (enzyme activity, absorbance; pH 7.4).
`CC(O)c1nc2ccc([N+](=O)[O-])cc2[nH]1` (racemic) gave an IC50 of 66 µM (enzyme activity, absorbance).
`COc1ccc(/C=N/NC(=O)c2ccc(C(=O)N/N=C/c3ccc(OC)c(OC)c3)cc2)cc1OC` gave an IC50 of 81.7 µM (enzyme activity).
For `COC(=O)C1=C(C)NC(=O)CC1c1ccc([N+](=O)[O-])cc1` (stereo not drawn), the IC50 was 29.1 µM (enzyme activity, absorbance; pH 7.4).
The IC50 of `Brc1cccc(-c2nnc3n2N=C(c2ccc(-c4ccccc4)cc2)CS3)c1` is reported as 5.79 µM (enzyme activity).

For quick reference, copied from above:
`COC(=O)C1=C(C)NC(=O)CC1c1ccc(Cl)cc1Cl` (stereo not drawn) has an IC50 of 82 µM (enzyme activity, absorbance; pH 7.4).
